# Published values collected from several papers.
# Protocols differ between the studies behind these lines. Values joined by “and” are separate records of one study, mostly repeats; a detail may differ. ± gives the spread as reported.
SMILES,test,test system,conditions,scale,measurement,value
COc1cc2cc(-c3ccc(CC(=O)Nc4cc(C(C)(C)C(F)(F)F)no4)cn3)cnc2cc1OC,,human RET-altered advanced solid tumours,"75 mg, phase I pooled, RECIST 1.1",,objective response rate,25%
N[C@@H](CCCCNC(=O)CCCC[C@@H]1SC[C@@H]2NC(=O)N[C@@H]21)C(=O)O,"binding, equilibrium dialysis LC-MS",,"5 µM, thermostabilized A2AR-BRIL construct","reference: no-protein control, direction not given",z-scored log2 fold change,0.376
Cc1ccc([C@@H]2O[C@H](CO)[C@@H](O)[C@H](O)[C@H]2O)cc1Cc1ccc(-c2ccc(F)cc2)s1,,Japanese type 2 diabetes patients,"400 mg, day 2",reference: day 1,change in fasting serum insulin,-2.2 µU/mL
OCc1ccc(O)cc1,ABTS radical,,300 µg/mL,,radical scavenging,62.51 ± 0.27%
COc1ccccc1[C@H](Cn1c(=O)n(C(C)(C)C(=O)O)c(=O)c2c(C)c(-c3ncco3)sc21)OC1CCOCC1,,human,"20 mg, post-treatment",,blood Triglycerides level,194 ± 39 mg/dL
CO[C@H]1CC[C@H](N2C(=O)CNc3ncc(-c4ccc(C(C)(C)O)nc4)nc32)CC1,flow cytometry,"stimulated B cells, human, blood","45 mg single dose, 1.5 h, mean",reference: baseline,pS6RP change from baseline,-72.1%
NC(=O)c1cnc2[nH]ccc2c1N[C@@H]1[C@@H]2CC3C[C@H]1C[C@@](O)(C3)C2,flow cytometry,"Japanese healthy men, blood","oral, 100 mg twice daily, 72 h after day 7 dose",reference: baseline,CD8+ naive T-cell change,-4.07%
CN(CCOc1ccc(CC2SC(=O)NC2=O)cc1)c1ccccn1 (racemic),,"C57BL/6 mice, diet-induced obese, proximal tibia",,,BV/TV,9.5 ± 1.3%
c1ccc(-c2n[nH]cc2-c2ccnc3ccccc23)nc1,"kinase binding, competitor, MIB/MS competition, measured: MCK1",Candida albicans cell lysate,10 µM,reference: DMSO,log2 fold change,0.8
COc1ccc(-c2cncc(N[C@@H](C)c3cccc(NC(=O)c4cncc(C)c4)c3)n2)cc1OC,measured: rno-miR-342-3p,"rat SU5416/hypoxia model, lung","dose not given, unit not given",reference: SU5416/hypoxia vehicle,delta delta Ct,0.321
CCO[C@H]1CCN(Cc2c(OC)cc(C)c3[nH]ccc23)[C@H](c2ccc(C(=O)O)cc2)C1,,"PNH patients, blood","oral, 50 mg then 200 mg, week 4, mean absolute change",reference: baseline,PNH RBC clone size,28.5%
CC(C)(COP(=O)(O)OP(=O)(O)OC[C@H]1O[C@@H](n2cnc3c(N)ncnc32)[C@H](O)[C@@H]1OP(=O)(O)O)[C@@H](O)C(=O)NCCC(=O)NCCS,"binding, equilibrium dialysis LC-MS",,"5 µM, thermostabilized A2AR-BRIL construct","reference: no-protein control, direction not given",z-scored log2 fold change,-1.87
Cc1n[nH]c2ccc(-c3cc(OC[C@@H](N)Cc4ccccc4)cnc3-c3ccoc3)cc12,"kinase binding, competitor, MIB/MS competition, measured: NPR1",Candida albicans cell lysate,100 nM,reference: DMSO,log2 fold change,0.0428
O=C(O)Cc1ccc(O)cc1,DPPH radical,,300 µg/mL,,radical scavenging,9.5 ± 0.72%
O=C(OC(C(F)(F)F)C(F)(F)F)N1CCN(Cc2cccc(Oc3ccccc3)c2)CC1,PET,"rhesus monkey, hippocampus","intravenous, 0.03 mg/kg, pretreatment blocking, together with: [18F]T-401",,tracer distribution volume,3.71 mL/cm3
C[C@@H]1C[C@H]2[C@@H]3CCC4=CC(=O)C=C[C@]4(C)[C@@]3(F)[C@@H](O)C[C@]2(C)[C@@]1(O)C(=O)CO,,"mouse LPS-induced ALI, isolated lungs ex vivo","intratracheal, 2 µmol/kg, dosed 1 h after LPS",reference: untreated ALI mice,NIRF signal reduction,87%
Nc1nc2nc[nH]c2c(=O)[nH]1,"binding, equilibrium dialysis LC-MS",,"5 µM, thermostabilized A2AR-BRIL construct","reference: no-protein control, direction not given",z-scored log2 fold change,0.46
NC1(C(=O)N[C@@H](CCO)c2ccc(Cl)cc2)CCN(c2nc[nH]c3nccc2-3)CC1,RECIST v1.1,human mCRPC patients,"dose not given, together with: enzalutamide",,RECIST response rate,11.1%
CCN1CCN(Cc2ccc(Nc3ncc(F)c(-c4cc(F)c5nc6n(c5c4)[C@H](C)CCC6)n3)nc2)CC1,,human advanced solid tumours,"100 mg, phase Ia monotherapy RECIST 1.1",,objective response rate,0%
C[C@@H](NC(=O)N1C(=O)[C@H](Cc2ccnc(N)c2)[C@H]1C(=O)O)C1CCCCC1,,human,"iv infusion, 1.0 mg/kg/h, 24 h",,PT AUEC,1860 h·s
C[C@H](NC(=O)c1c(C(F)F)nn(C)c1Oc1cccc(C(F)(F)F)c1)c1ccc(C(=O)O)cc1,irRECIST,"human, advanced tumours",500 mg,,objective response rate,0%
OC(CCN1CCCCC1)(c1ccccc1)C1CC2C=CC1C2 (centres unmarked),resting-state EEG,healthy elderly humans,"oral, 4 mg, eyes open, LS mean",,"power, Delta EEG, Pz-O1",8.3 µV²
COc1cc(O)c(CC=C(C)C)c(O)c1C(=O)/C=C/c1ccc(O)cc1,,"male Tac:SW mice, conventional and germ-free","in high-fat diet, dose not given, 10 weeks",reference: high-fat diet alone,hepatic and muscle lipid accumulation,no effect
O=C1O[C@H]([C@@H](O)CO)C(O)=C1O,DPPH radical,,300 µg/mL,,radical scavenging,98.07 ± 0.39%
Cc1noc(C)c1-c1cc(C(O)(c2ccccn2)c2ccccn2)c2nc(C3CC3)[nH]c2c1,measured: HEXIM1 expression,"human patients, peripheral blood","dose not given, day 15, 360 h, together with: enzalutamide 3 mg",,maximum induction,6%
C=CCn1c(=O)c2cnc(Nc3ccc(N4CCN(C)CC4)cc3)nc2n1-c1ccc2c(n1)[C@@](O)(CC)CC2,,"SK-MES-1 xenograft, BALB/c nude mice","oral, 80 mg/kg once daily x 22, day 21",reference: vehicle,tumour growth inhibition,37.5%
FC(F)(F)Oc1cccc(-c2ccnc3[nH]c(C(F)(F)F)nc23)c1,,GAN diet MASH mice,"300 mg/kg, 31 days",reference: GAN control,plasma triglycerides,no effect
O=C1c2ccncc2C(=O)c2c1[nH]c1ccccc21,,female monocrotaline PAH rat,dose not given,reference: vehicle,pulmonary vascular resistance,decreased
O=C(COP(=O)(O)O)[C@@H](O)[C@H](O)[C@H](O)COP(=O)(O)O,"binding, equilibrium dialysis LC-MS",,"5 µM, thermostabilized A2AR-BRIL construct","reference: no-protein control, direction not given",z-scored log2 fold change,-0.421
C[C@H]1C[C@H]2CSC(N)=N[C@@]2(c2nc(NC(=O)c3ccc(OC(F)F)cn3)cs2)CO1,measured: Aβx-40,"healthy adults, plasma","275 mg once daily, day 4",reference: placebo,percent change from baseline,-73.8%
N#Cc1ccc2c(c1)[C@H]1CCCN(C(=O)c3ccc4[nH]cnc4c3)[C@H]1C2,meal tolerance test,"human, Phase II trial","240 mg once daily, day 28, AUC0-2 h, adjusted mean",reference: baseline,insulin AUC change,-79.1 pmol/h/L
C[C@H](Oc1ccc(Br)cc1-c1ccon1)C(=O)O,last response peak,"human, tibialis anterior muscle","1200 mg, 15 Hz, single ascending dose",,difference from placebo,-7.34%
O=P(O)(O)C(Cl)(Cl)P(=O)(O)O,immunostaining,"mouse, SAH model, meninges","dose not given, day 1",reference: total area,Iba1-positive area,0.82%
N#Cc1ccc2c(c1)[C@H]1CCCN(C(=O)c3ccc4[nH]cnc4c3)[C@H]1C2,,"T2DM patients with overweight or obesity, urine","oral, 40 mg, day 1, 0-24 h, multiple dosing, adjusted geometric mean","reference: baseline day -1, -24-0 h",total urinary corticosteroid excretion,194%
C[C@@H](O)CCOC(=O)C[C@@H](C)O,measured: C18:1-DC acylcarnitine,"human, plasma","60 min, log2-transformed values",,metabolite level,-6.81 ± 0.76 µmol/L
OCC(O)CO,ELISA,"male Gpd2 knockout mice, serum","oral in drinking water, 5 % w/v, 2 days",,plasma FGF21 level,806 pg/mL and 482 pg/mL and 491 pg/mL and 864 pg/mL and 939 pg/mL
O=C1Nc2cc3[nH]nc(-c4ccncc4)c3cc2CN1Cc1ccccc1,RECIST v1.1,"human, relapsed or refractory advanced solid tumours","intravenous, 11.3 mg/kg",,"complete response, best response",0%
N[C@@H](C[C@@H](O)C(=O)O)C(=O)O,"binding, equilibrium dialysis LC-MS",,"5 µM, thermostabilized A2AR-BRIL construct","reference: no-protein control, direction not given",z-scored log2 fold change,0.394
O=C(O)CNC(=O)Cc1ccccc1,,"ventricular cardiomyocytes, C57BL/6 mouse","dose not given, 0.296 s",,sarcomere length,1.7 µm
N#Cc1ccn2c(-c3ccncc3)c(-c3ccc(F)cc3)nc2c1,"kinase binding, competitor, MIB/MS competition, measured: HRK1",Candida albicans cell lysate,10 µM,reference: DMSO,log2 fold change,-0.35
CN(C)C(=O)Oc1cccc([N+](C)(C)C)c1,neuromuscular block reversal,rat,"dose not given, 13.5 (unit not given), together with: cisatracurium",reference: T1 twitch,train-of-four ratio,95.1
N[C@@H](CS)C(=O)O,"binding, equilibrium dialysis LC-MS",,"5 µM, thermostabilized A2AR-BRIL construct","reference: no-protein control, direction not given",z-scored log2 fold change,0.458
O=C(COc1ccc(Cl)cc1)NC12CC(c3nnc([C@H]4C[C@@H](OC(F)(F)F)C4)o3)(C1)C2,,"healthy human, PBMC","oral, 200 mg single dose, day 1, 4 h post-dose, median, together with: sodium arsenite ex vivo",reference: baseline,CHAC1 mRNA change,-54.4%
O=C(O)C/C=C/CC(=O)O,"binding, equilibrium dialysis LC-MS",,"5 µM, thermostabilized A2AR-BRIL construct","reference: no-protein control, direction not given",z-scored log2 fold change,0.228
Cc1ccc(C(=O)Nc2ccc(CN3CCN(C)CC3)c(C(F)(F)F)c2)cc1C#Cc1cnc2cccnn12,platelet aggregation,platelet-rich plasma,"1 µM, DMSO 100, together with: collagen 2 mg/mL",,aggregation,7.6%
CC(C)NCC(O)c1ccc(O)c(O)c1 (centres unmarked),,"ventricular cardiomyocytes, C57BL/6 mouse","dose not given, 0.332 s",,sarcomere length,1.72 µm
O=C(O)[C@@H]1C[C@@H](O)CN1,"binding, equilibrium dialysis LC-MS",,"5 µM, thermostabilized A2AR-BRIL construct","reference: no-protein control, direction not given",z-scored log2 fold change,0.167

# A few entries again:
SMILES,test,test system,conditions,scale,measurement,value
O=C(O)Cc1ccc(O)cc1,DPPH radical,,300 µg/mL,,radical scavenging,9.5 ± 0.72%
O=C(OC(C(F)(F)F)C(F)(F)F)N1CCN(Cc2cccc(Oc3ccccc3)c2)CC1,PET,"rhesus monkey, hippocampus","intravenous, 0.03 mg/kg, pretreatment blocking, together with: [18F]T-401",,tracer distribution volume,3.71 mL/cm3
C[C@@H]1C[C@H]2[C@@H]3CCC4=CC(=O)C=C[C@]4(C)[C@@]3(F)[C@@H](O)C[C@]2(C)[C@@]1(O)C(=O)CO,,"mouse LPS-induced ALI, isolated lungs ex vivo","intratracheal, 2 µmol/kg, dosed 1 h after LPS",reference: untreated ALI mice,NIRF signal reduction,87%
Nc1nc2nc[nH]c2c(=O)[nH]1,"binding, equilibrium dialysis LC-MS",,"5 µM, thermostabilized A2AR-BRIL construct","reference: no-protein control, direction not given",z-scored log2 fold change,0.46
NC1(C(=O)N[C@@H](CCO)c2ccc(Cl)cc2)CCN(c2nc[nH]c3nccc2-3)CC1,RECIST v1.1,human mCRPC patients,"dose not given, together with: enzalutamide",,RECIST response rate,11.1%
CCN1CCN(Cc2ccc(Nc3ncc(F)c(-c4cc(F)c5nc6n(c5c4)[C@H](C)CCC6)n3)nc2)CC1,,human advanced solid tumours,"100 mg, phase Ia monotherapy RECIST 1.1",,objective response rate,0%
C[C@@H](NC(=O)N1C(=O)[C@H](Cc2ccnc(N)c2)[C@H]1C(=O)O)C1CCCCC1,,human,"iv infusion, 1.0 mg/kg/h, 24 h",,PT AUEC,1860 h·s
